Published values gathered from unrelated publications.
Compare with care: the assays were run in different laboratories.
Organism: Staphylococcus aureus

With `CC[C@H](C)[C@H](NC(=O)[C@H](CC(C)C)NC(=O)[C@H](CCCNC(=N)N)NC(=O)[C@@H](N)CCCNC(=N)N)C(=O)N[C@@H](CCCNC(=N)N)C(=O)N[C@@H](CCCCN)C(=O)N[C@@H](CC(C)C)C(=O)N[C@@H](CCCCN)C(=O)NCC(=O)N1CCC[C@H]1C(=O)N[C@@H](CCCCN)C(=O)N[C@H](C(=O)N[C@@H](Cc1ccc(O)cc1)C(=O)N[C@@H](CC(C)C)C(=O)N[C@@H](Cc1ccc(O)cc1)C(=O)N[C@@H](Cc1ccccc1)C(=O)N[C@@H](CCCCN)C(=O)N[C@@H](CC(C)C)C(=O)N[C@@H](CCC(N)=O)C(=O)N[C@@H](CC(C)C)C(=O)N[C@@H](CC(C)C)C(=O)N[C@@H](CCCCN)C(=O)N[C@@H](CCCCN)C(N)=O)[C@@H](C)CC` the MIC was 16 µM (CCARM 3095, methicillin-resistant, Mueller-Hinton broth; 24 h).
The MIC of `CC[C@H](C)[C@H](NC(=O)[C@H](CC(C)C)NC(=O)[C@H](CCCCN)NC(=O)[C@@H](NC(=O)[C@H](C)NC(=O)[C@H](CCC(=O)O)NC(=O)[C@H](Cc1c[nH]cn1)NC(=O)[C@@H](NC(=O)[C@H](CCCCN)NC(=O)[C@H](CCC(N)=O)NC(=O)[C@H](Cc1ccccc1)NC(=O)[C@@H](N)C(C)C)[C@@H](C)CC)[C@@H](C)CC)C(N)=O` is reported as greater than 128 µM (broth microdilution; MW2 resistant; 18 h, 37 °C).
`CC(C)C[C@H](NC(=O)[C@H](C)NC(=O)[C@@H](NC(=O)[C@H](CCCNC(=N)N)NC(=O)[C@H](CC(C)C)NC(=O)[C@H](Cc1c[nH]c2ccccc12)NC(=O)[C@@H]1CCCN1C(=O)[C@@H](N)CCCCN)C(C)C)C(=O)N[C@@H](CS)C(=O)N1CCC[C@H]1C(=O)NCC(=O)O` gave an MIC of 32 µM (broth microdilution; methicillin-resistant L6).
`CC[C@H](C)[C@H](NC(=O)[C@H](CCCCN)NC(=O)[C@H](Cc1c[nH]c2ccccc12)NC(=O)[C@H](Cc1c[nH]c2ccccc12)NC(=O)[C@H](CCCCN)NC(=O)[C@H](CCCCN)NC(=O)[C@H](CCCCN)NC(=O)[C@H](Cc1c[nH]c2ccccc12)NC(=O)[C@H](CCCCN)NC(=O)[C@H](CCCCN)NC(=O)[C@H](Cc1c[nH]c2ccccc12)NC(=O)[C@H](CCCCN)NC(=O)[C@H](CCCCN)NC(=O)[C@@H](NC(=O)[C@@H](NC(=O)[C@H](CCCCN)NC(=O)[C@@H](N)CCCNC(=N)N)[C@@H](C)CC)[C@@H](C)CC)C(=O)N[C@@H](Cc1c[nH]c2ccccc12)C(=O)N[C@@H](Cc1c[nH]c2ccccc12)C(=O)N[C@@H](CCCCN)C(=O)NCCOCCOCC(N)=O` gave an MIC of 1.9 µg/mL (broth microdilution; MRSA 109).
With `CC[C@H](C)[C@H](NC(=O)CN)C(=O)NCC(=O)N[C@@H](C)C(=O)N[C@H](C(=O)N[C@@H](CC(C)C)C(=O)N[C@@H](CCCCN)C(=O)N[C@H](C(=O)N[C@@H](CC(C)C)C(=O)N[C@H](C(=O)N[C@H](C(=O)NCC(=O)N[C@@H](CC(C)C)C(=O)N1CCC[C@H]1C(=O)N[C@@H](C)C(=O)N[C@@H](CC(C)C)C(=O)N[C@H](C(=O)N[C@@H](CO)C(=O)N[C@@H](Cc1c[nH]c2ccccc12)C(=O)N[C@H](C(=O)N[C@@H](CCCCN)C(=O)N[C@@H](CCCNC(=N)N)C(=O)N[C@@H](CCCCN)C(=O)N[C@@H](CCCNC(=N)N)C(=O)N[C@@H](CCC(N)=O)C(=O)N[C@@H](CCC(N)=O)C(N)=O)[C@@H](C)CC)[C@@H](C)CC)[C@@H](C)O)[C@@H](C)O)C(C)C)C(C)C` the MIC was 2 µM (MRSA 43300; 24 h, 37 °C).
With `Nc1nc(/C(=N/O)C(=O)N[C@@H]2C(=O)N3C(C(=O)O)=C(/C=C4\CCN([C@@H]5CCNC5)C4=O)CS[C@H]23)ns1` the MIC was 0.25 µg/mL (CRB, PBP4 deletion).
`CC[C@H](C)[C@H](NC(=O)[C@H](CC(C)C)NC(=O)[C@H](CCCNC(=N)N)NC(=O)[C@@H](N)CCCNC(=N)N)C(=O)N[C@@H](CCCNC(=N)N)C(=O)N[C@H](C(=O)N[C@@H](CCCCN)C(=O)N[C@H](C(=O)NCC(=O)N1CCC[C@H]1C(=O)N[C@H](C(=O)N[C@H](C(=O)N[C@@H](Cc1ccc(O)cc1)C(=O)N[C@@H](CCCCN)C(=O)N[C@@H](Cc1ccc(O)cc1)C(=O)N[C@@H](Cc1ccccc1)C(=O)N[C@@H](CCCCN)C(=O)N[C@@H](CCCCN)C(=O)N[C@@H](CCC(N)=O)C(=O)N[C@@H](CC(C)C)C(=O)N[C@@H](CC(C)C)C(=O)N[C@@H](CCCCN)C(=O)N[C@@H](CCCCN)C(N)=O)[C@@H](C)CC)[C@@H](C)CC)[C@@H](C)O)[C@@H](C)O` gave an MIC of greater than 128 µM (CCARM 3089, methicillin-resistant, Mueller-Hinton broth; 24 h).
`CC[C@H](C)[C@H](N)C(=O)N[C@@H](CC(C)C)C(=O)NCC(=O)N[C@@H](CCC(=O)O)C(=O)N[C@H](C(=O)N[C@@H](Cc1c[nH]c2ccccc12)C(=O)N[C@@H](CCCCN)C(=O)NCC(=O)N[C@H](C(=O)N[C@@H](CCCCN)C(=O)N[C@@H](CC(=O)O)C(=O)N[C@H](C(=O)N[C@@H](CC(C)C)C(N)=O)[C@@H](C)CC)[C@@H](C)CC)[C@@H](C)CC` has an MIC of greater than 100 µM (broth microdilution; ATCC 25923, Mueller-Hinton broth; 16 h, 37 °C).
For `CC[C@H](C)[C@H](NC(=O)CN)C(=O)NCC(=O)N[C@@H](CCCCN)C(=O)N[C@@H](Cc1ccccc1)C(=O)N[C@@H](CC(C)C)C(=O)N[C@@H](CCCCN)C(=O)N[C@@H](CCCCN)C(=O)N[C@@H](C)C(=O)N[C@@H](CCCCN)C(=O)N[C@@H](CCCCN)C(=O)N[C@@H](Cc1ccccc1)C(=O)NCC(=O)N[C@@H](CCCCN)C(=O)N[C@@H](C)C(=O)N[C@@H](Cc1ccccc1)C(=O)N[C@H](C(=O)N[C@@H](CCCCN)C(=O)N[C@H](C(=O)N[C@@H](CC(C)C)C(=O)N[C@@H](CCCCN)C(=O)N[C@@H](CCCCN)C(N)=O)[C@@H](C)CC)C(C)C`, the MIC was 25 µM (broth dilution; ATCC 25923, Mueller-Hinton broth; 24 h, 37 °C).
`CC[C@H](C)[C@H](NC(=O)[C@H](CC(C)C)NC(=O)[C@H](CCCNC(=N)N)NC(=O)[C@@H](N)CCCNC(=N)N)C(=O)N[C@@H](CCCNC(=N)N)C(=O)N[C@H](C(=O)N[C@@H](CC(C)C)C(=O)N[C@H](C(=O)NCC(=O)N1CCC[C@H]1C(=O)N[C@H](C(=O)N[C@H](C(=O)N[C@@H](Cc1ccc(O)cc1)C(=O)N[C@@H](CC(C)C)C(=O)N[C@@H](Cc1ccc(O)cc1)C(=O)N[C@@H](Cc1ccccc1)C(=O)N[C@@H](CCCCN)C(=O)N[C@@H](CC(C)C)C(=O)N[C@@H](CCC(N)=O)C(=O)N[C@@H](CC(C)C)C(=O)N[C@@H](CC(C)C)C(=O)N[C@@H](CCCCN)C(=O)N[C@@H](CCCCN)C(N)=O)[C@@H](C)CC)[C@@H](C)CC)[C@@H](C)O)[C@@H](C)O` gave an MIC of greater than 128 µM (CCARM 3090, methicillin-resistant, Mueller-Hinton broth; 24 h).
`CC[C@H](C)[C@H](NC(=O)[C@H](Cc1c[nH]c2ccccc12)NC(=O)[C@@H](NC(=O)[C@H](Cc1ccc(O)cc1)NC(=O)[C@@H]1CCCN1C(=O)[C@@H](NC(=O)[C@H](C)N)[C@@H](C)CC)[C@@H](C)CC)C(=O)N[C@@H](Cc1ccc(O)cc1)C(=O)N[C@@H](CCCNC(=N)N)C(=O)N[C@@H](CC(C)C)C(=O)N[C@@H](CC(C)C)C(=O)N[C@@H](CCCNC(=N)N)C(=O)N[C@@H](CCCCN)C(=O)NCC(N)=O` has an MIC of 15 µM (broth microdilution; ATCC 19609; 18 h, 37 °C).
The MIC of `CC[C@H](C)[C@H](NC(=O)[C@H](CC(C)C)NC(=O)[C@@H](NC(=O)[C@H](CCCNC(=N)N)NC(=O)[C@H](CCCNC(=N)N)NC(=O)[C@H](CCCNC(=N)N)NC(=O)[C@@H](N)CCCNC(=N)N)[C@@H](C)CC)C(=O)N[C@@H](CCCNC(=N)N)C(=O)N[C@@H](CCCNC(=N)N)C(=O)N[C@H](C(=O)N[C@@H](CC(C)C)C(=O)N[C@@H](CCCNC(=N)N)C(=O)N[C@@H](CC(C)C)C(=O)N[C@@H](CCCNC(=N)N)C(=O)N[C@@H](CO)C(=O)N[C@@H](CO)C(=O)N[C@@H](C)C(=O)N[C@@H](Cc1ccc(O)cc1)C(N)=O)C(C)C` is reported as 32 µM (broth microdilution; 24 h, 37 °C).
`CC[C@H](C)[C@H](NC(=O)CNC(=O)[C@H](CC(=O)O)NC(=O)[C@H](CCCNC(=N)N)NC(=O)[C@@H](NC(=O)[C@H](CC(N)=O)NC(=O)[C@H](CCCNC(=N)N)NC(=O)CNC(=O)[C@@H](NC(=O)[C@H](CCCCN)NC(=O)[C@H](CCC(=O)O)NC(=O)[C@@H](NC(=O)[C@H](CCCCN)NC(=O)[C@H](CCCCN)NC(=O)[C@H](Cc1ccccc1)NC(=O)[C@@H](NC(=O)[C@H](CCCCN)NC(=O)[C@H](Cc1c[nH]c2ccccc12)NC(=O)[C@@H](N)CCCNC(=N)N)[C@@H](C)CC)[C@@H](C)CC)C(C)C)C(C)C)C(=O)N[C@H](C(=O)N[C@@H](CCCCN)C(=O)N[C@@H](C)C(=O)NCC(=O)N1CCC[C@H]1C(=O)N[C@@H](C)C(=O)N[C@H](C(=O)N[C@@H](C)C(=O)N[C@H](C(=O)N[C@H](C(=O)NCC(=O)N[C@@H](CCC(N)=O)C(=O)N[C@@H](C)C(=O)N[C@@H](C)C(=O)N[C@H](C(=O)N[C@H](C(=O)N[C@H](C(=O)N[C@@H](CCCCN)C(N)=O)C(C)C)C(C)C)[C@@H](C)O)C(C)C)C(C)C)C(C)C)[C@@H](C)CC` has an MIC of greater than 128 µM (broth microdilution, MH medium; KCTC 1621; 16 h, 37 °C).

Some of these lines once more:
With `CC[C@H](C)[C@H](NC(=O)CN)C(=O)NCC(=O)N[C@@H](C)C(=O)N[C@H](C(=O)N[C@@H](CC(C)C)C(=O)N[C@@H](CCCCN)C(=O)N[C@H](C(=O)N[C@@H](CC(C)C)C(=O)N[C@H](C(=O)N[C@H](C(=O)NCC(=O)N[C@@H](CC(C)C)C(=O)N1CCC[C@H]1C(=O)N[C@@H](C)C(=O)N[C@@H](CC(C)C)C(=O)N[C@H](C(=O)N[C@@H](CO)C(=O)N[C@@H](Cc1c[nH]c2ccccc12)C(=O)N[C@H](C(=O)N[C@@H](CCCCN)C(=O)N[C@@H](CCCNC(=N)N)C(=O)N[C@@H](CCCCN)C(=O)N[C@@H](CCCNC(=N)N)C(=O)N[C@@H](CCC(N)=O)C(=O)N[C@@H](CCC(N)=O)C(N)=O)[C@@H](C)CC)[C@@H](C)CC)[C@@H](C)O)[C@@H](C)O)C(C)C)C(C)C` the MIC was 2 µM (MRSA 43300; 24 h, 37 °C).
